Experimental data collected from several papers.
Each line is one published result; not all experiments were run side by side. Values joined by “and” are separate records of one study, mostly repeats; a detail may differ. ± marks the error that the study gave.

| Compound | assay | test system | setting | scale | measurement | result |
| --- | --- | --- | --- | --- | --- | --- |
| CCCCN1C(=O)c2cccc3c(NCCCCCN4CCOCC4)ccc(c23)C1=O |  | chloroform |  |  | fluorescence quantum yield | 1.09 |
| CN(Cc1ccccc1)C(=O)CN1CCN(CC(=O)[O-])CCN(CC(=O)N(C)Cc2ccccc2)CC1.[44Sc+3] |  | mouse, lung | intravenous, 1 h |  | tracer uptake | 1.23 %ID/g |
| C=CC(=O)Nc1cc(Nc2nccc(-c3cn(C)c4ccccc34)n2)c(OC)cc1N(C)CCNC |  | human, dried blood spots | 270 ng/mL, 30 d, -80 °C, high QC level |  | remaining compound | 98.8% |
| CCc1cnc(NC(=O)c2cc(S(=O)(=O)N3CCOCC3)ccc2N(C)C2CCCC2)s1 |  | mouse, blood | 10 mg/kg, 3 doses |  | Lymphocytes absolute count | 4740 µL⁻¹ |
| CN(Cc1ccccc1)C(=O)CN1CCN(CC(=O)[O-])CCN(Cc2cccc(C(=O)[O-])n2)CC1.[177Lu+3] |  | BALB/c mouse, urine | intravenous, 1 h |  | uptake | 151 ± 98 %ID/g |
| O=C(Nc1cnccc1-c1ccc([18F])cc1)c1ccnc(NC(=O)C2CC2)c1 |  | FVB/NJ mice (both sexes), stomach | intravenous, dose not given, 120 min |  | SUV | 0.7 |
| O=C(O)c1c(O)cc(O[C@@H]2O[C@H](CO)[C@@H](O)[C@H](O)[C@H]2O)cc1/C=C/c1ccccc1 |  | Sprague-Dawley rat, plasma | oral, 5.0 mg/kg |  | AUC(0-t) | 80.3 ± 17.9 ng·h/mL |
| CN(CCCO)Cc1ccc(-c2noc(-c3ccc(OCC[18F])c(C(F)(F)F)c3)n2)cc1F |  | Sprague-Dawley rat, male, brain | intravenous, 30 min |  | brain uptake | 0.68 ± 0.12 %ID/g |
| COC1CN([C@H]2CC[C@H]([C@@]3(C)Oc4c(Cl)cc(C(=O)NCc5c(SC)cc(C)[nH]c5=O)c(C)c4O3)CC2)C1 | RNA-seq, item: PTPRD | human, whole blood | dose not given, 24 h | reference: pretreatment baseline | log2 fold change | 2.58 |
| Cc1nn(-c2nc3c(F)cc(F)cc3s2)c(O)c1C(c1ccc(C(F)(F)F)cc1)c1c(C)nn(-c2nc3c(F)cc(F)cc3s2)c1O |  | ICR mouse, plasma | oral, 50 mg/kg |  | AUMC extrapolated observed | 1.75% and 4.57% and 26.1% |
| CCC1CNC(CC)CN(C(C(=O)[O-])c2ccc(C(=O)[O-])cc2)C(CC)CN(CC(=O)[O-])C(CC)CN1.[Mn+2] (stereo not drawn) | ICP-MS | BALB/c mouse, spleen | intravenous, 0.05 mmol/kg, 30 min, without anaesthesia |  | Mn content | 0.42 ± 0.06 µg/g |
| CCC(CC)n1c(Cc2ccco2)nc2cc(C(=O)N[C@@H](CC(=O)O)c3ccccc3)ccc21 |  | male Sprague-Dawley rat, plasma | intraperitoneal, 10 mg/kg |  | bioavailability | 61.4% |
| COc1cccc(OC)c1-c1cc(C(=O)NC2(C(=O)O)C3CC4CC(C3)CC2C4)nn1-c1ccc(C(=O)N(C)CCOCCOCCN(C)C(=O)[C@H](CCCCNC(=O)[C@H](CC(C)C)NC(=O)C2OC2C(=O)O)NC(=O)CN2CCN(CC(=O)[O-])CCN(CC(=O)[O-])CCN(CC(=O)[O-])CC2)cc1C(C)C.[177Lu+3] (mixture of isomers) |  | mouse, HT-29 xenograft | 24 h post injection, biodistribution | reference: tumour over muscle uptake | tumour-to-muscle ratio | 42 |
| CC[C@H](C)[C@@H]1NC(=O)[C@H](Cc2ccc(O)cc2)NC(=O)CCCSC[C@@H](C(=O)N(CC(=O)N[C@@H](CC(C)C)C(=O)NCC(N)=O)Cc2ccc(F)cc2)NC(=O)[C@H](CC(N)=O)NC(=O)[C@H](CCC(N)=O)NC1=O |  | human, plasma | intravenous, 20 µg, infusion |  | Vd | 38 L |
| O=C(Nc1cnccc1-c1ccc([18F])nc1)c1ccnc(NC(=O)C2CC2)c1 |  | FVB/NJ mice, both sexes, liver | intravenous, 40 min, median, P-gp inhibitor pretreatment, added: tariquidar 15 mg/kg iv |  | SUV | 8.29 |
| CN(Cc1ccccc1)C(=O)CN1CCN(CC(=O)[O-])CCN(CC(=O)[O-])CC1.[44Sc+3] |  | mouse, spleen | intravenous, 1 h |  | tracer uptake | 0.94 %ID/g |
| C=CC(=O)N1CC2C(=O)N(CCN(C)C)c3c(c4cc(Cl)c(-c5c(O)cccc5F)nc4n(-c4c(C)ccnc4C(C)C)c3=O)N2CC1C (stereo not drawn) |  | nude mouse, CSF | oral, 100 mg/kg, 8 h |  | concentration | 23.3 nM |
| CCCCCCCCCCCCCCCC(=O)N[C@@H](CCCCN)C(=O)N[C@@H](CCCCN)C(=O)N[C@@H](CO)C(=O)N[C@@H](CCCNC(=N)N)C(=O)N[C@@H](C)C(=O)N[C@@H](CC(C)C)C(=O)N[C@@H](Cc1ccccc1)C(N)=O |  | human patients, plasma | intravenous, 0.5 mg/kg over 2 h |  | Vss | 0.1 L/kg |
| C/C(N)=N/C(=N\S(=O)(=O)c1ccc(C(F)(F)F)cc1)N1C[C@H](c2ccccc2)C(c2ccc(Cl)cc2)=N1 |  | cynomolgus monkey female, plasma | oral, 18 mg/kg |  | oral bioavailability | 26.3% |
| CN1CCC[C@]1(C)/C=C/S(=O)(=O)NC(=O)Nc1c2c(cc3c1CCC3)CCC2 | item: transaminases increased, probably related | human | oral, 12.5 mg twice daily, 14 days, multiple ascending dose |  | subjects with adverse event | 0% |

| Compound | assay | test system | setting | scale | measurement | result |
| --- | --- | --- | --- | --- | --- | --- |
| N#Cc1cccc(-c2ccc3ncc(-c4cc(F)cc(F)c4)c(N4CCC(N)CC4)c3c2)c1OC1OC(C(=O)O)C(O)C(O)C1O (stereo not drawn) |  | healthy male, urine | oral, 20 mg, 72 h, 14C-paltusotine dosed | reference: dose | radioactivity recovered | 1.4% |
| O=C([O-])CN1CCN(CC(=O)[O-])CCN(Cc2cccc(C(=O)[O-])n2)CC1.[44Sc+3] |  | mouse, muscle | intravenous, 1 h |  | tracer uptake | 0.25 %ID/g |
| CN1C(=O)[C@@H](Cc2ccc(O)c(I)c2)NC(=O)CNC(=O)[C@H](Cc2ccc3ccccc3c2)NC(=O)[C@H](CCCNC(=N)N)NC(=O)[C@H]1CCCNC(=O)c1ccc(CNC(=O)CN2CCN(CC(=O)O)CCN(CC(=O)O)CCN(CC(=O)O)CC2)cc1 [lutetium-177 labelled] | 2 | human, extrapolated from mouse, gallbladder wall |  |  | total absorbed dose | 0.011 mGy/MBq |
| Cc1ncsc1-c1ccc(CNC(=O)[C@@H]2C[C@@H](O)CN2C(=O)[C@@H](NC(=O)COCC(C)(COCCOCCOCCNC(=O)C[C@@H]2N=C(c3ccc(Cl)cc3)c3c(sc(C)c3C)-n3c(C)nnc32)COCCOCCOCCNC(=O)C[C@@H]2N=C(c3ccc(Cl)cc3)c3c(sc(C)c3C)-n3c(C)nnc32)C(C)(C)C)cc1 |  | male C57BL/6 mouse, plasma | intravenous, 5 mg/kg, 4 h, single dose |  | concentration | 1390 ng/mL |
| Nc1nnc(-c2ccccc2O)cc1N1CC2CCC(C1)N2c1ccnc(C#CCCN2CCCCCC2)c1 |  | mouse | oral, 10 mg/kg |  | unbound Cmax | 1.4 nM |
| COc1cnc2cccc(N3CCc4c(cc(Cn5ccnc5)cc4-c4cn(C)nc4C(F)(F)F)C3=O)c2c1 |  | male CD-1 mouse, plasma | intravenous, 3 mg/kg |  | MRT(0-inf) | 0.5 h |
| CN(O)C(=O)CCC(=O)NCCCN(CCCCN(CCCNC(=O)CCC(=O)N(C)O)C(=O)CCC(=O)N(C)O)C(=O)CCC(=O)N(C)O.[89Zr] |  | mouse, bone | 1 h |  | tracer uptake | 0.12 %ID/g |
| NC(=O)[C@H](CCC(=O)O)NC(=O)[C@H](CCC(=O)O)NC(=O)[C@H](Cc1ccc(O)cc1)NC(=O)[C@H](Cc1ccccc1)NC(=O)[C@H](Cc1ccccc1)NC(=O)OCC1c2ccccc2-c2ccccc21 | CD spectroscopy | peptide nanofibres |  |  | random coil content | 52% |
| CN([O-])C(=O)CN1CCN(CC(=O)N(C)[O-])CCN(Cc2ccccn2)CC1.[89Zr+4] | radio-TLC | human serum | 2 days, run 3 |  | intact complex | 93.4% |
| COC(=O)[C@@]1(C(C)C)C=C(C(=O)Nc2cccc(C(=O)Nc3ccc(Nc4nccc(-c5cccnc5)n4)c(C)c3)c2)C(=O)CC1 |  | rat, blood plasma | 10 µM, 60 min |  | compound remaining | 85.5% |
| O=C(c1ccccc1)N1C(c2ccc(OCC3CCN(CCCF)C3)cc2)c2ccc(O)cc2CC12CC2 (stereo not drawn) |  | C57BL/6J mouse, plasma | intraperitoneal, 25 mg/kg, group mean |  | AUC(0-inf) | 8350 ng·h/mL |
| N#C[C@@H]1CC(F)(F)CN1C(=O)CNC(=O)c1ccnc2ccc(OCCCN3CCN(C(=O)CCc4ccc5c(c4)CN4CCN(Cc6cc(CCC(=O)O)ccc6O)CC(=O)[O][Al-]([18F])([O]C(=O)C4)[O]5)CC3)cc12 (stereo partly drawn) | radio-TLC | CD-1 mice, plasma | intravenous, 10 min post-injection |  | radiochemical purity | 94.2 ± 2.2% |
| CN(C(=O)C(C)(C)c1cc(C(F)(F)F)cc(C(F)(F)F)c1)c1cnc(N2C[C@H]3COC(O)CN3C[C@H]2CO)cc1-c1ccc(F)cc1CO (stereo partly drawn) |  | pooled human liver microsomes | pH 7.4, substrate depletion |  | Km | 1.19 µM |
| COC1C=COC2(C)Oc3c(C)c(O)c4c(c3C2=O)C2=NC3(CCN(CC(C)C)CC3)NC2=C(NC(=O)C(C)=CC=CC(C)C(O)C(C)C(O)C(C)C(OC(=O)Nc2cnccn2)C1C)C4=O (stereo not drawn) |  | CD-1 mouse female, plasma | intravenous, 5 mg/kg |  | elimination half-life | 4 h |
| C[C@]12C[C@H](c3ccc(S(C)(=O)=O)cc3)C3=C4CCC(=O)C=C4CC[C@H]3[C@@H]1CC[C@@]2(O)C(F)(F)C(F)(F)F | item: compound (parent) | healthy human volunteers, pooled plasma | oral, 5 mg daily, day 28, 0 h |  | plasma concentration | 11.7 ng/mL |
| N#C[C@@H]1CCCN1C(=O)CNC(=O)c1ccnc2ccc(OCCCN3CCN(C(=O)CCc4ccc(O)c(CN5CCN6CC(=O)[O][Al-]([18F])([O]C(=O)C5)[O]c5ccc(CCC(=O)N7CCN(CCCOc8ccc9nccc(C(=O)NCC(=O)N%10CCC[C@H]%10C#N)c9c8)CC7)cc5C6)c4)CC3)cc12 (stereo partly drawn) | radio-TLC | CD-1 mice, plasma | intravenous, 120 min post-injection |  | radiochemical purity | 60.6 ± 8.7% |
| OC1(C(F)(F)F)CCN(c2nc(Nc3ccnc(C(F)(F)F)c3)nc(-c3cccc(C(F)(F)F)n3)n2)C1 (stereo not drawn) |  | Sprague-Dawley rat, both sexes, plasma | oral gavage, 20 mg/kg |  | AUC(0-t) | 40300 ± 7160 ng·h/mL |
| COc1cccc(OC)c1-c1cc(C(=O)NC2(C(=O)O)C3CC4CC(C3)CC2C4)nn1-c1ccc(C(=O)N(C)CCCN(C)C(=O)[C@H](CCCCNC(=O)[C@H](CC(C)C)NC(=O)C2OC2C(=O)O)NC(=O)CN2CCN(CC(=O)[O-])CCN(CC(=O)[O-])CCN(CC(=O)[O-])CC2)cc1C(C)C.[177Lu+3] (mixture of isomers) |  | mouse, HT-29 xenograft | 72 h post injection, biodistribution | reference: tumour over muscle uptake | tumour-to-muscle ratio | 35.3 |
| C=C(NC(=O)c1csc(-c2nc3c(cc2O)-c2nc(cs2)C(=O)NC(C(C)O)C(=O)NC(=C(C)OC)c2nc(cs2)C(=O)NC2c4nc(cs4)C(=O)NC(COC(=O)c4c5c6c(cccc6n4O)COC(=O)C(OC4CC(C)(O)C(N(C)C)C(C)O4)C2OC5)c2nc-3cs2)n1)C(N)=O (stereo not drawn) |  | ICR mice, Streptococcus pneumoniae ATCC 49169 infected, immunocompromised, blood | intravenous, 16 mg/kg/day three times daily |  | AUC(0-t) | 1460 ng·h/mL |
